Published values from different studies.
Protocols differ between the studies behind these lines. ± gives the spread as reported.
HLA class I histocompatibility antigen, A alpha chain: HLA class I histocompatibility antigen, A alpha chain (Homo sapiens, UniProt P04439)
Epithelial sodium channel subunit beta: Epithelial sodium channel subunit beta (Homo sapiens, UniProt P51168)
uncharacterized protein: uncharacterized protein (Anopheles coluzzii, UniProt A0A6E8VQK1)

Substance | target or system | assay | system | setting | scale | quantity | result
ARNCRAPRK | HLA class I histocompatibility antigen, A alpha chain | peptide-MHC complex stability, iTopia off-rate | peptide | – | – | dissociation half-life | 0.4 h
CC(C)C[C@@H]1NC(=O)CNC(=O)[C@H](CC(C)C)NC(=O)[C@H](CO)NC(=O)[C@H](CCCCN)NC(=O)[C@@H]2CSSC[C@@H](C(=O)N[C@H](C(N)=O)C(C)C)NC(=O)[C@H](C)NC(=O)[C@@H]3CSSC[C@H](NC(=O)[C@H](Cc4ccccc4)NC(=O)[C@H](Cc4c[nH]cn4)NC(=O)[C@H](CC(C)C)NC(=O)[C@H](CC(N)=O)NC(=O)CCSSC[C@H](NC(=O)[C@H](CCCCN)NC(=O)CNC(=O)[C@H](CC(C)C)NC1=O)C(=O)N[C@@H](C)C(=O)NCC(=O)N[C@@H](CO)C(=O)N[C@@H](Cc1ccccc1)C(=O)N3)C(=O)N[C@@H](CCC(N)=O)C(=O)N[C@@H](CC(C)C)C(=O)N[C@@H](CCCNC(=N)N)C(=O)N2 | env (Human immunodeficiency virus type 1 group M subtype B, UniProt P35961) | binding, surface plasmon resonance | – | pH 7.4, 1:1 Langmuir fit | – | dissociation rate constant | 0.00475 ± 1.3e-05 s⁻¹
COc1cc2c3cc1Oc1cc(ccc1O)C[C@@H]1c4c(cc(OC)c(O)c4Oc4ccc(cc4)C[C@@H]3N(C)CC2)CC[N+]1(C)C | Chrnd/Chrna1/Chrne (Mus musculus, UniProt P02716+P04756+P20782) | – | mouse diaphragm | 0.04 µM, AChE inhibited | – | free receptor reduction | 52%
AKNCRAPRK | HLA class I histocompatibility antigen, A alpha chain | peptide-MHC complex stability, iTopia off-rate | peptide | – | – | dissociation half-life | 18 h
CC[C@H](C)[C@H](NC(=O)[C@H](CO)NC(=O)[C@H](Cc1ccc(O)cc1)NC(=O)[C@H](CC(=O)O)NC(=O)[C@H](CO)NC(=O)[C@@H](NC(=O)[C@H](Cc1ccccc1)NC(=O)[C@@H](NC(=O)CNC(=O)[C@H](CCC(=O)O)NC(=O)[C@@H](C)NC(=O)[C@@H](N)Cc1ccc(O)cc1)[C@@H](C)O)[C@@H](C)CC)C(=O)N[C@@H](C)C(=O)N[C@@H](CCSC)C(=O)N[C@@H](CC(=O)O)C(=O)N[C@@H](CCCCN)C(=O)N[C@H](C(=O)N[C@@H](Cc1c[nH]cn1)C(=O)N[C@@H](CCC(N)=O)C(=O)N[C@@H](CCC(N)=O)C(=O)N[C@@H](CC(=O)O)C(=O)N[C@@H](Cc1ccccc1)C(=O)N[C@H](C(=O)N[C@@H](CC(N)=O)C(=O)N[C@@H](Cc1c[nH]c2ccccc12)C(=O)N[C@@H](CC(C)C)C(=O)N[C@@H](CC(C)C)C(=O)N[C@@H](C)C(=O)N[C@@H](CCC(N)=O)C(=O)NCC(=O)N1CCC[C@H]1C(=O)N[C@@H](CO)C(=O)N[C@@H](CO)C(=O)NCC(=O)N[C@@H](C)C(=O)N1CCC[C@H]1C(=O)N1CCC[C@H]1C(=O)N1CCC[C@H]1C(=O)N[C@@H](CO)C(=O)N[C@@H](CCCCN)C(N)=O)C(C)C)[C@@H](C)CC | Glucagon-like peptide 1 receptor (Mus musculus, UniProt O35659) | cAMP, agonist | – | – | – | Emax | 39%
C[C@@H](O)[C@H](NC(=O)[C@H](Cc1ccccc1)NC(=O)[C@H](Cc1ccccc1)NC(=O)[C@H](CC(=O)O)NC(=O)[C@H](CC(=O)O)NC(=O)[C@H](Cc1c[nH]c2ccccc12)NC(=O)[C@H](CO)NC(=O)[C@@H](N)CCCCN)C(=O)N[C@@H](CCCNC(=N)N)C(=O)O | Epithelial sodium channel subunit beta | binding, bio-layer interferometry | – | – | – | kon | 169 M⁻¹ s⁻¹
N[C@@H](C[C@]1(C(=O)O)C[C@H]2OC[C@@H](O)[C@@H](O)[C@H]2O1)C(=O)O | Grik2 (Rattus norvegicus, UniProt P42260, A518T) | [3H]kainate displacement | – | – | relative to: wild-type GluK2 | affinity decrease | ~7 fold
CC[C@H](C)[C@H](NC(=O)[C@H](CC(C)C)NC(=O)[C@@H](NC(=O)[C@@H](NC(=O)[C@H](CC(C)C)NC(=O)[C@H](CC(=O)O)NC(=O)[C@H](CC(C)C)NC(=O)[C@H](Cc1ccccc1)NC(=O)[C@H](Cc1c[nH]c2ccccc12)NC(=O)[C@@H](NC(=O)[C@H](CC(C)C)NC(=O)[C@H](Cc1ccccc1)NC(=O)[C@H](Cc1ccc(O)cc1)NC(=O)[C@H](Cc1c[nH]c2ccccc12)NC(=O)[C@H](CC(C)C)NC(=O)[C@H](CCCCN)NC(=O)[C@H](Cc1c[nH]c2ccccc12)NC(=O)[C@H](Cc1c[nH]c2ccccc12)NC(=O)[C@H](CCCCN)NC(=O)[C@H](CCCCN)NC(=O)[C@H](CCCCN)NC(=O)[C@H](CCCCN)NC(=O)CNC(=O)CCCCCNC(=S)Nc1ccc2c(c1)C(=O)OC21c2ccc(O)cc2Oc2cc(O)ccc21)C(C)C)[C@@H](C)CC)[C@@H](C)CC)C(=O)N[C@@H](CC(C)C)C(=O)N[C@@H](CC(C)C)C(=O)N[C@@H](CC(C)C)C(=O)N[C@@H](Cc1c[nH]c2ccccc12)C(=O)N[C@@H](Cc1c[nH]c2ccccc12)C(=O)N[C@@H](CCCCN)C(=O)N[C@@H](CCCCN)C(=O)N[C@@H](CCCCN)C(=O)N[C@@H](CCCCN)C(=O)O | Latent membrane protein 1, transmembrane domain 5 (Human herpesvirus 4, UniProt P03230) | FRET | C14 betaine micelles | concentration not given, pH 7.4, added: coumarin-labelled TMD5 50 nM | – | binding stoichiometry | 0.53 ± 0.02
Nc1ccn([C@H]2C[C@H](O)[C@@H](COP(=O)(O)OP(=O)(O)OP(=O)(O)O)O2)c(=O)n1 | Gag-Pol polyprotein, reverse transcriptase (gag-pol, Human immunodeficiency virus type 1 group M subtype B, UniProt P04585) | substrate | – | misinsertion opposite template T | – | Km | 101 ± 51.9 µM
CC[C@H](C)[C@H](NC(=O)[C@H](CO)NC(=O)[C@H](CC(=O)O)NC(=O)[C@H](CC(C)C)NC(=O)[C@H](CCCCN)NC(=O)[C@H](CCC(N)=O)NC(=O)[C@H](CC(N)=O)NC(=O)[C@H](CO)NC(=O)[C@H](CCCNC(=N)N)NC(=O)[C@H](CCCNC(=N)N)NC(=O)[C@@H](NC(=O)[C@H](Cc1c[nH]c2ccccc12)NC(=O)[C@H](CCC(=O)O)NC(=O)[C@H](CCCCN)NC(=O)[C@H](CO)NC(=O)[C@H](CCC(=O)O)NC(=O)[C@H](CCC(=O)O)NC(=O)[C@H](CC(C)C)NC(=O)[C@H](CC(=O)O)NC(=O)[C@H](CO)NC(=O)[C@H](CCCCN)NC(=O)[C@@H](NC(=O)[C@H](CCCCN)NC(=O)[C@H](CC(N)=O)NC(=O)[C@H](CC(C)C)NC(=O)[C@@H](NC(=O)[C@@H](NC(=O)[C@H](CO)NC(=O)[C@@H](NC(=O)[C@H](CC(=O)O)NC(=O)[C@@H](NC(=O)[C@@H]1CCCN1C(=O)[C@H](CC(=O)O)NC(=O)[C@H](CC(C)C)NC(=O)[C@H](C)NC(=O)[C@@H](NC(C)=O)C(C)C)[C@@H](C)CC)[C@@H](C)CC)[C@@H](C)CC)C(C)C)[C@@H](C)CC)[C@@H](C)CC)C(N)=O | Fusion glycoprotein F0, HRN domain (F, Human parainfluenza 3 virus, UniProt P06828) | co-assembly, HPIV3 HRN, with, variable-temperature CD | PBS | 50 µM, 1:1 mixture | – | melting temperature | 88 °C
LARNCRAPR | HLA class I histocompatibility antigen, A alpha chain | iTopia binding | peptide | 11 µM, 18 h, 21 °C | relative to: positive control | peptide binding | 62.5%
Cc1cn([C@H]2C[C@H](O)[C@@H](COP(=O)(O)OP(=O)(O)OP(=O)(O)O)O2)c(=O)[nH]c1=O | Gag-Pol polyprotein, reverse transcriptase (gag-pol, Human immunodeficiency virus type 1 group M subtype B, UniProt P04585, K653T) | nucleotide misinsertion, steady-state kinetics | – | K66T mutant RT, added: opposite template T | – | Km | 1620 ± 704 µM
RASILSGGK | HLA class I histocompatibility antigen, A alpha chain | iTopia binding | peptide | 11 µM, 18 h, 21 °C | relative to: positive control | peptide binding | 87.6%
Nc1ncnc2c1ncn2[C@H]1C[C@H](O)[C@@H](COP(=O)(O)OP(=O)(O)OP(=O)(O)O)O1 | Gag-Pol polyprotein, reverse transcriptase (gag-pol, Human immunodeficiency virus type 1 group M subtype B, UniProt P04585, K653N) | substrate | – | K66N mutant, added: G:A mismatched primer template | – | Km | 413 ± 267 µM
Cc1c(N2CC[C@@H](CN)C2)c(F)cc2c(=O)n(CCNC(=N)N)c(=O)n(C3CC3)c12 | DNA gyrase (gyrA/gyrB, Escherichia coli, UniProt P0AES4+P0AES6) | DNA cleavage, poison | – | – | – | concentration giving linear DNA | 25 to 50 µM
CCOP(=O)(OCC)Oc1ccc([N+](=O)[O-])cc1 | Phosphotriesterase-like lactonase (Geobacillus stearothermophilus, UniProt D0VX06) | – | – | – | – | Km | 2100 ± 320 µM
CCOC(=O)CC(SP(=S)(OC)OC)C(=O)OCC (centres unmarked) | uncharacterized protein | enzyme activity, inhibitor | Sf9 cell homogenate | 4.545 µM, 0.1667 h, added: α-naphthyl acetate substrate | relative to: no inhibitor | remaining activity | 105%
CC(C)C[C@H](NC(=O)[C@@H]1CCCN1C(=O)[C@H](CCCNC(=N)N)NC(=O)[C@H](CC(C)C)NC(=O)[C@H](CCCNC(=N)N)NC(=O)[C@H](CC(=O)O)NC(=O)[C@H](Cc1ccc(O)cc1)NC(=O)[C@H](CC(=O)O)NC(=O)[C@H](CCC(=O)O)NC(=O)[C@H](CCC(N)=O)NC(=O)CN)C(=O)O | Epithelial sodium channel subunit beta | binding, bio-layer interferometry | – | – | – | kon | 91.9 M⁻¹ s⁻¹
Cc1cn([C@H]2C=C[C@@H](COP(=O)(O)OP(=O)(O)OP(=O)(O)O)O2)c(=O)[nH]c1=O | Gag-Pol polyprotein, reverse transcriptase (gag-pol, Human immunodeficiency virus type 1 group M subtype B, UniProt P04585, K652A) | reverse transcriptase activity, inhibitor | HIV-1 | – | relative to: K65A mutant over wild type | fold resistance | 3 fold
CCN(CC)c1nc(C)cc(OP(=S)(OC)OC)n1 | uncharacterized protein | enzyme activity, inhibitor | Sf9 cell homogenate | 0.02326 µM, 0.1667 h, added: α-naphthyl acetate substrate | relative to: no inhibitor | remaining activity | 104%
Nc1nc2c(ncn2[C@H]2C[C@H](O)[C@@H](COP(=O)(O)OP(=O)(O)OP(=O)(O)O)O2)c(=O)[nH]1 | Gag-Pol polyprotein, reverse transcriptase (gag-pol, Human immunodeficiency virus type 1 group M subtype B, UniProt P04585, K653A) | nucleotide misinsertion, steady-state kinetics | – | K66A mutant RT, added: opposite template T | – | Km | 74.4 ± 43.6 µM
RNCRAPRKK | HLA class I histocompatibility antigen, A alpha chain | peptide binding, iTopia affinity | peptide | – | – | ED50 | 23.7 µM
CC[C@H](C)[C@H](NC(=O)[C@H](CC(C)C)NC(=O)[C@H](Cc1c[nH]c2ccccc12)NC(=O)[C@H](CCC(N)=O)NC(=O)[C@@H](NC(=O)[C@H](Cc1ccccc1)NC(=O)[C@H](C)NC(=O)[C@H](CCCCNC(=O)COCCOCCNC(=O)COCCOCCNC(=O)CC[C@H](NC(=O)CCCCCCCCCCCCCCCCCCC(=O)O)C(=O)O)NC(=O)[C@H](CCC(N)=O)NC(=O)[C@H](C)NC(=O)[C@@H](NC(=O)[C@H](CCCCN)NC(=O)[C@H](CC(=O)O)NC(=O)[C@H](CC(C)C)NC(=O)C(C)(C)NC(=O)[C@@H](NC(=O)[C@H](CO)NC(=O)[C@H](Cc1ccc(O)cc1)NC(=O)[C@H](CC(=O)O)NC(=O)[C@H](CO)NC(=O)[C@@H](NC(=O)[C@H](Cc1ccccc1)NC(=O)[C@@H](NC(=O)CNC(=O)[C@H](CCC(=O)O)NC(=O)C(C)(C)NC(=O)[C@@H](N)Cc1ccc(O)cc1)[C@@H](C)O)[C@@H](C)O)[C@@H](C)CC)[C@@H](C)CC)C(C)C)C(=O)N[C@@H](C)C(=O)NCC(=O)NCC(=O)N1CCC[C@H]1C(=O)N[C@@H](CO)C(=O)N[C@@H](CO)C(=O)NCC(=O)N[C@@H](C)C(=O)N1CCC[C@H]1C(=O)N1CCC[C@H]1C(=O)N1CCC[C@H]1C(=O)N[C@@H](CO)C(N)=O | – | – | healthy subjects | 4.5 mg, day 29, multiple ascending dose, LS mean | relative to: baseline | systolic blood pressure change | 1.72 mmHg

Excerpt of the above:
Substance | target or system | assay | system | setting | scale | quantity | result
LARNCRAPR | HLA class I histocompatibility antigen, A alpha chain | iTopia binding | peptide | 11 µM, 18 h, 21 °C | relative to: positive control | peptide binding | 62.5%
Cc1cn([C@H]2C[C@H](O)[C@@H](COP(=O)(O)OP(=O)(O)OP(=O)(O)O)O2)c(=O)[nH]c1=O | Gag-Pol polyprotein, reverse transcriptase (gag-pol, Human immunodeficiency virus type 1 group M subtype B, UniProt P04585, K653T) | nucleotide misinsertion, steady-state kinetics | – | K66T mutant RT, added: opposite template T | – | Km | 1620 ± 704 µM
RASILSGGK | HLA class I histocompatibility antigen, A alpha chain | iTopia binding | peptide | 11 µM, 18 h, 21 °C | relative to: positive control | peptide binding | 87.6%
